Measurements of several laboratories.
Compare with care: the assays were run in different laboratories. Several values in a cell are separate wells, animals, samples, runs or records. Numbers after ± are the reported error.
rep main protease: Replicase polyprotein 1ab, main protease (rep, Severe acute respiratory syndrome coronavirus 2, UniProt P0DTD1)
Spike glycoprotein: Spike glycoprotein (Severe acute respiratory syndrome coronavirus 2, UniProt P0DTC2)

SMILES	target	test	system	setting	how to read	quantity	result
CCOC(=O)CN[C@@H](C(=O)N1CC[C@H]1C(=O)NCc1ccc(/C(N)=N\O)cc1)C1CCCCC1	rep main protease	reporter gene (mKate2), inhibitor		20 µM		inhibition	-0.678%
CC1(C)Cc2ccc(C(=O)N3CCCC[C@H](C4CN(C(=O)c5cncc(O)c5)C4)C3)cc2O1	rep main protease	enzyme activity, inhibitor		5 µM, run 1		inhibition	8.7%
Nc1ccccc1-c1noc(-c2ccncc2)n1	Spike glycoprotein, receptor-binding domain (Severe acute respiratory syndrome coronavirus 2, UniProt P0DTC2)	RBD-ACE2 binding, inhibitor, ELISA		from pIC50		ligand efficiency	0.385
C=C(CC[C@@H](C(=O)O)[C@H]1[C@H](O)C[C@@]2(C)C3=CC[C@H]4C(C)(C)C(=O)CC[C@]4(C)C3=CC[C@]12C)C(C)C	rep main protease	reporter gene (Gaussia luciferase), inhibitor		20 µM		inhibition	1.45%
CNC(=O)c1c(NC(=O)c2sc(=S)n(-c3ccc(C)cc3)c2N)sc2c1CCCC2	Replicase polyprotein 1ab, nsp14 N7-methyltransferase (rep, Severe acute respiratory syndrome coronavirus 2, UniProt P0DTD1)	N7-methyltransferase activity, inhibitor, Py-FLINT				Hill slope	1.47 ± 0.32
O=C(O)[C@H]1O[C@@H](Oc2cc(O)c3c(=O)cc(-c4ccc(O)cc4)oc3c2)[C@H](O)[C@@H](O)[C@@H]1O	rep main protease	reporter gene (Gaussia luciferase), inhibitor		20 µM		inhibition	-0.554%
CC1=C(/C=C/C(C)=C/C=C/C(C)=C/C=C/C=C(C)/C=C/C=C(C)/C=C/C2=C(C)CCCC2(C)C)C(C)(C)CCC1	Spike glycoprotein	binding, BLI				koff	0.0376 s⁻¹
COC[C@H](NC(=O)c1cnc(C)s1)C(=O)N[C@@H](COC)C(=O)N[C@@H](Cc1ccccc1)C(=O)[C@@]1(C)CO1	rep main protease	reporter gene (Gaussia luciferase), inhibitor		20 µM		inhibition	-5.23%
O=c1c(O)c(-c2ccc(O)cc2O)oc2cc(O)cc(O)c12	Spike glycoprotein	binding, BLI				kon	337 M⁻¹ s⁻¹
O=C(NCCCCCCCCCCCCNC(=O)c1cc(OCc2cn([C@@H]3O[C@H](CO)[C@H](O[C@H]4O[C@H](CO)[C@H](O)[C@H](O)[C@H]4O)[C@H](O)[C@H]3O)nn2)cc(OCc2cn([C@@H]3O[C@H](CO)[C@H](O[C@H]4O[C@H](CO)[C@H](O)[C@H](O)[C@H]4O)[C@H](O)[C@H]3O)nn2)c1)c1cc(OCc2cn([C@@H]3O[C@H](CO)[C@H](O[C@H]4O[C@H](CO)[C@H](O)[C@H](O)[C@H]4O)[C@H](O)[C@H]3O)nn2)cc(OCc2cn([C@@H]3O[C@H](CO)[C@H](O[C@H]4O[C@H](CO)[C@H](O)[C@H](O)[C@H]4O)[C@H](O)[C@H]3O)nn2)c1	Shiga toxin subunit B (stxB, Shigella dysenteriae, UniProt Q7BQ98)		Escherichia coli			Hill slope	-1.06
CC(C)=CCC[C@]1(C)C=Cc2c(O)c3c(c(CC=C(C)C)c2O1)O[C@]12C(=C[C@@H]4C[C@H]1C(C)(C)O[C@@]2(C/C=C(/C)C(=O)O)C4=O)C3=O	Spike glycoprotein	binding, BLI				koff	0.00448 s⁻¹
O=C(Cc1cccnc1)N1CCC[C@H]([C@H]2CCN(C(=O)C3=CO[C@H]4C=CC(F)=CC4=C3)C2)C1	rep main protease	enzyme activity, inhibitor		5 µM, mean of runs		inhibition	15.9%
COc1oc(=O)c2cc(N)ccc2c1Cl	rep main protease	viral replication, mKate2 reporter	SARS-CoV-2	20 µM		inhibition	-0.397%
CC(C)(O)C(F)(F)C(=O)N[C@@H](CNc1ccc2nnnn2n1)c1ccc2ccccc2c1	rep main protease	enzyme activity, inhibitor		5 µM, run 1		inhibition	10.5%
O=c1cc(-c2ccccc2)c2ccc(O)c(O)c2o1	Spike glycoprotein	binding, biolayer interferometry				koff	0.0851 s⁻¹
CCc1c(C(=O)C(N)=O)c2c(OCC(=O)O)cccc2n1Cc1ccccc1	Daboia russelii venom phospholipase A2	enzyme activity, inhibitor	TN population	1 µM, added: NOB substrate	baseline: venom alone	remaining activity	94% and 100% and 90%
O=C(c1cncc2[nH]cnc12)N1CC[C@]2(CCCCN(C(=O)[C@H]3C[C@@H]4C=CC[C@@H](C4)C3)C2)C1	rep main protease	enzyme activity, inhibitor		5 µM, run 1		inhibition	10.5%
[H]/N=C(/N)c1ccc(NCc2nc3cc(C(=O)N(CCC(=O)O)c4ccccn4)ccc3n2C)cc1	rep main protease	reporter gene (Gaussia luciferase), inhibitor		20 µM		inhibition	0.255%
CC[C@H](C)[C@H](NC(=O)[C@@H]1CCCN1C(=O)[C@H](C)NC(=O)[C@@H]1CSSC[C@@H]2NC(=O)[C@H](CC(=O)O)NC(=O)[C@H](CCCNC(=N)N)NC(=O)[C@H](CCC(=O)O)NC(=O)[C@H](CCCNC(=N)N)NC(=O)CNC(=O)[C@H](CC(=O)O)NC(=O)[C@@H]3CSSC[C@H](NC(=O)[C@H](CCC(=O)O)NC(=O)[C@H](CC(C)C)NC(=O)CNC(=O)[C@H](C)NC(=O)[C@H](CSSC[C@H](NC(=O)[C@H](Cc4ccccc4)NC(=O)[C@@H](N)CO)C(=O)N[C@@H](CC(C)C)C(=O)N[C@@H](C(C)C)C(=O)N[C@@H](CCCCN)C(=O)N[C@@H](Cc4c[nH]c5ccccc45)C(=O)N[C@@H](CCCCN)C(=O)N[C@@H](CCC(N)=O)C(=O)N3)NC2=O)C(=O)N[C@@H](Cc2c[nH]c3ccccc23)C(=O)N[C@@H](CCCCN)C(=O)N[C@@H](CCCNC(=N)N)C(=O)N[C@@H](CCCNC(=N)N)C(=O)NCC(=O)N[C@@H](CC(N)=O)C(=O)N[C@@H](CCCCN)C(=O)N[C@@H](CO)C(=O)N[C@@H](CO)C(=O)N[C@@H](C(C)C)C(=O)N1)C(=O)N[C@H](C(=O)O)[C@@H](C)O	Acid-sensing ion channel 1 (ASIC1, Homo sapiens, UniProt P78348)	outside-out patch clamp	HEK-293T ASIC1a knockout	100 nM		slow deactivation component fraction	0.61 ± 0.02
NCCNCCNCCN	Angiotensin-converting enzyme 2 (ACE2, Homo sapiens, UniProt Q9BYF1)					Emax	-60.8%
O=C(NC[C@@H]1C[C@H]2CC[C@@H]1N(C(=O)c1ccc3n[nH]nc3n1)C2)[C@@H]1CCc2n[nH]c(=O)n2C1	rep main protease	enzyme activity, inhibitor		5 µM, run 1		inhibition	14.4%
Cc1cc(OC2CCN(Cc3ccc(S(=O)(=O)F)cc3)CC2)cc(N)n1	Calmodulin-sensitive adenylate cyclase (cya, Bacillus anthracis, UniProt P40136)					kinact	0.000333 s⁻¹
COc1cccc(-c2nc(C(=O)NCC=CS(C)(=O)=O)c(C)[nH]2)c1	Polyprotein P1234, nsP2 protease domain (Chikungunya virus, UniProt Q5XXP4)	time-dependent inhibitor				kinact/KI	460 ± 52 M⁻¹ s⁻¹
O=C(Cn1ccnn1)NC[C@H](NC(=O)c1cncc2ccccc12)c1ccc2ccccc2c1	rep main protease	enzyme activity, inhibitor		5 µM, run 2		inhibition	12.5%
C[C@@H]1O[C@@H](O[C@H]2[C@H](O[C@H]3CC[C@@]4(C)[C@@H](CC[C@]5(C)[C@@H]4CC=C4[C@@H]6CC(C)(C)CC[C@]6(C(=O)O[C@@H]6O[C@H](CO[C@@H]7O[C@H](CO)[C@@H](O[C@@H]8O[C@@H](C)[C@H](O)[C@@H](O)[C@H]8O)[C@H](O)[C@H]7O)[C@@H](O)[C@H](O)[C@H]6O)CC[C@]45C)[C@]3(C)CO)OC[C@H](O)[C@@H]2O)[C@H](O)[C@H](O)[C@H]1O	Spike glycoprotein	binding, biolayer interferometry				kon	243 M⁻¹ s⁻¹
O=C(CC1CC(=O)NC(=O)C1)NC[C@@H]1CC2(CCC2)CN1C(=O)[C@@H]1CCCC12CCOCC2	rep main protease	enzyme activity, inhibitor		5 µM, run 1		inhibition	17.5%
O=C(/C=C/c1ccccc1)c1ccc(O)cc1	rep main protease	reporter gene (Gaussia luciferase), inhibitor		20 µM		inhibition	-2.09%
O=C(NC[C@H](NC(=O)c1cncc2ccccc12)c1ccc2ccccc2c1)c1cn[nH]n1	rep main protease	enzyme activity, inhibitor		5 µM, mean of runs		inhibition	13.4%
O.O=C1NC(=O)C(=O)C(=O)N1	rep main protease	reporter gene (Gaussia luciferase), inhibitor		20 µM		inhibition	1.44%

Excerpt of the above:
SMILES	target	test	system	setting	how to read	quantity	result
CC[C@H](C)[C@H](NC(=O)[C@@H]1CCCN1C(=O)[C@H](C)NC(=O)[C@@H]1CSSC[C@@H]2NC(=O)[C@H](CC(=O)O)NC(=O)[C@H](CCCNC(=N)N)NC(=O)[C@H](CCC(=O)O)NC(=O)[C@H](CCCNC(=N)N)NC(=O)CNC(=O)[C@H](CC(=O)O)NC(=O)[C@@H]3CSSC[C@H](NC(=O)[C@H](CCC(=O)O)NC(=O)[C@H](CC(C)C)NC(=O)CNC(=O)[C@H](C)NC(=O)[C@H](CSSC[C@H](NC(=O)[C@H](Cc4ccccc4)NC(=O)[C@@H](N)CO)C(=O)N[C@@H](CC(C)C)C(=O)N[C@@H](C(C)C)C(=O)N[C@@H](CCCCN)C(=O)N[C@@H](Cc4c[nH]c5ccccc45)C(=O)N[C@@H](CCCCN)C(=O)N[C@@H](CCC(N)=O)C(=O)N3)NC2=O)C(=O)N[C@@H](Cc2c[nH]c3ccccc23)C(=O)N[C@@H](CCCCN)C(=O)N[C@@H](CCCNC(=N)N)C(=O)N[C@@H](CCCNC(=N)N)C(=O)NCC(=O)N[C@@H](CC(N)=O)C(=O)N[C@@H](CCCCN)C(=O)N[C@@H](CO)C(=O)N[C@@H](CO)C(=O)N[C@@H](C(C)C)C(=O)N1)C(=O)N[C@H](C(=O)O)[C@@H](C)O	Acid-sensing ion channel 1 (ASIC1, Homo sapiens, UniProt P78348)	outside-out patch clamp	HEK-293T ASIC1a knockout	100 nM		slow deactivation component fraction	0.61 ± 0.02
CNC(=O)c1c(NC(=O)c2sc(=S)n(-c3ccc(C)cc3)c2N)sc2c1CCCC2	Replicase polyprotein 1ab, nsp14 N7-methyltransferase (rep, Severe acute respiratory syndrome coronavirus 2, UniProt P0DTD1)	N7-methyltransferase activity, inhibitor, Py-FLINT				Hill slope	1.47 ± 0.32
NCCNCCNCCN	Angiotensin-converting enzyme 2 (ACE2, Homo sapiens, UniProt Q9BYF1)					Emax	-60.8%
O=C(NCCCCCCCCCCCCNC(=O)c1cc(OCc2cn([C@@H]3O[C@H](CO)[C@H](O[C@H]4O[C@H](CO)[C@H](O)[C@H](O)[C@H]4O)[C@H](O)[C@H]3O)nn2)cc(OCc2cn([C@@H]3O[C@H](CO)[C@H](O[C@H]4O[C@H](CO)[C@H](O)[C@H](O)[C@H]4O)[C@H](O)[C@H]3O)nn2)c1)c1cc(OCc2cn([C@@H]3O[C@H](CO)[C@H](O[C@H]4O[C@H](CO)[C@H](O)[C@H](O)[C@H]4O)[C@H](O)[C@H]3O)nn2)cc(OCc2cn([C@@H]3O[C@H](CO)[C@H](O[C@H]4O[C@H](CO)[C@H](O)[C@H](O)[C@H]4O)[C@H](O)[C@H]3O)nn2)c1	Shiga toxin subunit B (stxB, Shigella dysenteriae, UniProt Q7BQ98)		Escherichia coli			Hill slope	-1.06
CCc1c(C(=O)C(N)=O)c2c(OCC(=O)O)cccc2n1Cc1ccccc1	Daboia russelii venom phospholipase A2	enzyme activity, inhibitor	TN population	1 µM, added: NOB substrate	baseline: venom alone	remaining activity	94% and 100% and 90%
